# Published values gathered from unrelated publications.
# Numbered parts are unrelated; each lists some results of a single study. Positions count from the first letter of the parent shown.

# Series 1
# Target: ABI1, truncated, D143A, DHFR fusion (Arabidopsis thaliana)
# Technique: DHFR PCA, deep sequencing
# Sample: yeast
# Notes: methotrexate growth selection, single substitutions
# Added: (+)-ABA 710 µM
# Baseline: wild-type fitted maximum
# Reading: higher = stronger binding
# Parent: PYL1, truncated, DHFR fusion (Arabidopsis thaliana); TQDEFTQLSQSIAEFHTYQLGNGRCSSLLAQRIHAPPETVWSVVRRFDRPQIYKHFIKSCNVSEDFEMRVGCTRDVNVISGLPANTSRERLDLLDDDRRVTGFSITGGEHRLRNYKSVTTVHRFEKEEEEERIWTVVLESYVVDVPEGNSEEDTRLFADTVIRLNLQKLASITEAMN; partner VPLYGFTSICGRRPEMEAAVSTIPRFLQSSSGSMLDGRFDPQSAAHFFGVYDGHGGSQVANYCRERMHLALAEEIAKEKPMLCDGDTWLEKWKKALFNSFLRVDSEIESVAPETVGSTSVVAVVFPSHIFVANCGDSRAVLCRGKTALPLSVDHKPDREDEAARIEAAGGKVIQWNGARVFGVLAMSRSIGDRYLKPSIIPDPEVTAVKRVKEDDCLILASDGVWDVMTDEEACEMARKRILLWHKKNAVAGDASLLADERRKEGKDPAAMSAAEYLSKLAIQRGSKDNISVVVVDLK
Substitution,relative binding score
R99Q,114%
E147V,97.2%
E174R,93.7%
L94P,2.73%
R90V,96.2%
F47Y,83.3%
L156T,105%
K58N,97.3%
V142T,101%

# Series 2
# Target: RING finger protein unkempt homolog, zinc fingers 1-6, GST-SBP tag (UNK, Homo sapiens, UniProt Q9C0B0, residues 30-357)
# Technique: RNA Bind-n-Seq
# Molecule type: RNA
# Sample: in vitro
# Concentration: not given
# Notes: RNA with constant flanks, human and mouse sites, ends assumed
# Baseline: input RNA pool
# Reading: higher = stronger binding
# All sequences stand within: GGGAGUUCUACAGUCCGACGAUC … CAACAGAGGAUUGAGCAUCA
# Target sequence (chain): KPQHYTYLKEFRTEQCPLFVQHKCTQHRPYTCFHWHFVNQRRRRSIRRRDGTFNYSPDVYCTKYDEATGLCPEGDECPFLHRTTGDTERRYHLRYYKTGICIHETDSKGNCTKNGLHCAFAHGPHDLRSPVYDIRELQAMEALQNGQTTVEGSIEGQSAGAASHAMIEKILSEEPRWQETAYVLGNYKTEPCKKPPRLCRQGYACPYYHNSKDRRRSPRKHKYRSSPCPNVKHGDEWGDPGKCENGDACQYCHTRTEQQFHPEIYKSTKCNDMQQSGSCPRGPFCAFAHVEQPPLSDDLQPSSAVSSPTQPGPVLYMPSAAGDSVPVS
Sequence,bound/input enrichment
AAGGUGCCCUUAUUGCUUCCAAAUGUUUCUGCUUUGGAAUCUCAAAUAGAAAUGGGCAACAUAGUUAAACCCAAAGUACUUACGAAAGAAGCAGAGGAAAAACUUCCUUCUGAUACAGAG,0.354 ratio
UUUCAGUGUCUGCUGCACAGAGCUUUACAUCCCCGGGAGCCUCUACCCCCAAUUCAGCAGCAUAUUUGGAAUAUGCUGAAUCCUCCCGCUGAGGUGACAACAAAAAGUCAGAUUCCUCUC,0.199 ratio
UUCGUUGGCUUCCUGGGCUGCUACGGGGCCAUCCAGGAAUCCCAGUGCCUGCUGGGGACGUUCUUCACCUGCCUGGUCAUCCUGUUUGCCUGUGAGGUGGCCGCCGGCAUCUGGGGCUUU,0.0815 ratio
GCCAGAUGCUGGGUUCAGGCCUGGGUGCCCAGAUCGAUGGCGCAGAGUGCGUGCUACGCAUGAACCAGGCACCCACCGUGGGCUUUGAGGAGGACGUGGGCCAGCGCAGCACUCUGCGCG,0.0715 ratio
AUCCGAAUUGGCAGGAAUGAGUGUGUGGUUGUCAUUAGGGUGGACAAAGAAAAAGGAUAUAUUGAUUUGUCAAAAAGAAGAGUUUCUCCAGAGGAAGCAAUCAAAUGUGAAGACAAAUUC,0.334 ratio
AUUUUUGUCUGUGGUUAGAACAUUUUCAUAAAACAGAUAAAGAAUGUGUAAUACUCUUAAUUUUUUUUUUUUUUUUUUUUUUUUUUUUGCUUUCUGCCUUCUAAAGUGCAACAGUAUAUA,4.78 ratio
AGAAGCUUCAUAAGGAAUAAACAAGUUGAAUAGAGAAAACACUGAUUGAUAAUAGGCAUUUUAGUGGUCUUUUUAAUGUUUUCUGCUGUGAAACAUUUCAAGAUUUAUUGAUUUUUUUUU,3.86 ratio
ACAAUCAGGCUUCUGCAAAAAGAGGAAGUUUGGAAACUAAAGAUGAUAUUCCAUUUCGAAAAGUUCUUGGUAAUCCGGGUAGAGGAUCGAUUAAGACUGUAGCAGGAAGUGGAAUAGCUC,0.304 ratio
UACUCUGACAAGCACAACUGUCCGUAUGAUUACAAAGCAGAAGCUGCAGCAAAAAUCAGAAAAGAGAAUCCAGUUGUUGUGGCUGAAAAAAUUCAGAGAAUAUAAAUUACUUCUUGUGAA,0.14 ratio
CGGGGCGCUCCUUCACGCCGUAGGCAAGCGGGGCGGCGGCUGCGGUACCUGCCCACCGGGAGCUUUCCCUUCCUUCUCCUGCUGCUGCUGCUCUGCAUCCAGCUCGGGGGAGGACAGAAG,0.171 ratio
CAGUCUUUAAGUAUGCCAGCAUCUCUUGGAAGGAUGAACCAGGGUACUGCACGCCUUGCUAGUUUAAUGAAUCUUGGAAUGAGUUCUUCAUUGAAUCAACAAGGAGCUCAUAGUGCACUG,0.173 ratio

# Series 3
# Target: Sal-like protein 4, full length isoform A (SALL4, Homo sapiens, UniProt Q9UJQ4, residues 1-1053)
# UniProt Q9UJQ4, sequence (whole entry, looked up): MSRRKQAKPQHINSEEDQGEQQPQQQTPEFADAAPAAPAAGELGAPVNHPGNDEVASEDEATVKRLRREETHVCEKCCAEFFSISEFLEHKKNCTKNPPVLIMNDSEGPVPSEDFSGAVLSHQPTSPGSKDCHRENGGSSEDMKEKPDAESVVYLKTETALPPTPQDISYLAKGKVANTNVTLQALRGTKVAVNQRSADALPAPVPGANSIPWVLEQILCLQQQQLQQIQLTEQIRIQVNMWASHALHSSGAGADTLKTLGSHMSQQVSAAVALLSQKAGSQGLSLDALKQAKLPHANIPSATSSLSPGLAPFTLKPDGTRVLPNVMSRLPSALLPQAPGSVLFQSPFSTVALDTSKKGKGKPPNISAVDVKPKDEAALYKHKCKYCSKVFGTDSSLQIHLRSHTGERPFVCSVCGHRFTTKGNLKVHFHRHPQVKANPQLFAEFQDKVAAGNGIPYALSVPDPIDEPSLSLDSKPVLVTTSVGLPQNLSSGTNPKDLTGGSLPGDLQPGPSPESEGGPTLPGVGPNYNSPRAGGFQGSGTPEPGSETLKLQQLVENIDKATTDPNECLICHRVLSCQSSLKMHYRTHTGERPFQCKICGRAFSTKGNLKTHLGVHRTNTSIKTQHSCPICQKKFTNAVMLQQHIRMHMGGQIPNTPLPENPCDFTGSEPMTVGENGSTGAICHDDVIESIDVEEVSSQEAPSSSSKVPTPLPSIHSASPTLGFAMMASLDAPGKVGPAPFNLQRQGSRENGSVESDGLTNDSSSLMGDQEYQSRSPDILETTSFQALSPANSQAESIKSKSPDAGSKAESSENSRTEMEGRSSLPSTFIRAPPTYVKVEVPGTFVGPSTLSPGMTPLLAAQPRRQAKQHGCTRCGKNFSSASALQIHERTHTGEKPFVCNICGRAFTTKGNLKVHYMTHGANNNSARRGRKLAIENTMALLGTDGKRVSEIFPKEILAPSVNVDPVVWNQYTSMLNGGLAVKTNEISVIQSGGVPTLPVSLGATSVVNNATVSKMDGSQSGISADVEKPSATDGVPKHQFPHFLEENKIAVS
# Technique: universal PBM
# Molecule type: double-stranded DNA, one strand shown
# Sample: in vitro
# Concentration: 600 nM
# Notes: 8-mer, flanks averaged, mean of replicates
# Reading: higher = stronger binding
Sequence,E-score
CAAGTGGA,-0.00851
CCGGCTCG,-0.283
CGGCGTAC,-0.331
AGCTACGA,-0.06
AGTACCAT,0.128
GCATAAAC,0.251
GGGTTAAC,-0.0557
CCGATCCA,-0.146
CAGACCAG,-0.184
ACTGGTGA,0.00512
CTCGGGTA,-0.099
ATTTTTCC,0.278
CTGGGCAC,-0.289
TAACCTTA,0.161
AGATGTCA,0.095
GGTTGAAC,-0.0285
ATACGTTG,0.0762
AGACACAT,0.11
GGTGACGA,0.0548
AGGGGACG,-0.275
CTGATTCA,0.0604
TACCGGCA,-0.0889
AGCTCAGG,-0.17
TCTATTAA,0.324
ACGACCAG,-0.11

# Series 4
# Target: Histone acetyltransferase KAT6A, winged helix 2, GST fusion (KAT6A, Homo sapiens, UniProt Q92794, residues 85-181)
# Technique: protein binding microarray
# Molecule type: double-stranded DNA, one strand shown
# Sample: in vitro
# Concentration: not given
# Notes: 8-mer, flanks averaged, mean of 2 arrays, mostly near background
# Baseline: not given
# Reading: higher = stronger binding
# Residues (chain): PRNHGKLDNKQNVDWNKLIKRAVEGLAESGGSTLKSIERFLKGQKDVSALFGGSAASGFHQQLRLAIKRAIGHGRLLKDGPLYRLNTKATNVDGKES
Sequence,E-score
AAAGACGA,0.016
CACGCTCC,-0.0285
GCACGTTA,-0.0834
CCTGGACG,-0.15
TCCGTCGA,-0.0154
CTTTTATA,0.00652
TCATTGCA,0.148
CGCCCGCA,0.294
ACGGTCGC,0.0689
AATGACGC,-0.115
CGTCCTCA,0.00315
AGGCTTAA,-0.0901
ACGTTTAC,-0.202
ACGTTTGC,-0.0192
ATACTAGA,0.156
AATACTCC,-0.177

# Series 5
# Target: CCND2, cyclin fold, Cln2 fusion (human)
# Technique: yeast growth competition, sequencing
# Sample: yeast
# Notes: weak parent motif
# Baseline: not given
# Reading: higher = stronger binding
# Parent: SLBP docking peptide (human); ARYKRKLLINDFG
Substitution,normalised enrichment score
K6M,0.15
D11F,-0.302
K4M,-0.027
F12H,0.134
N10A,0.157
L7I,-0.0932
D11N,-0.101
K6Y,-0.109
G13A,-0.202
K4N,0.273
Y3P,0.0711
K6A,0.45
D11T,0.055
R5W,-0.381

# Series 6
# Target: Fragile X messenger ribonucleoprotein 1, C-terminal low-complexity region (Fmr1, Mus musculus, UniProt P35922)
# Technique: RNA Bind-n-Seq
# Molecule type: RNA
# Sample: in vitro
# Concentration: 200 nM
# Notes: whole 134-nt RNA, ends assumed
# Added: 150 mM LiCl
# Baseline: input library
# Reading: higher = stronger binding
# All molecules: 7-deaza-guanosine replaces G
# All sequences stand within: GGGAGUUCUACAGUCCGACGAUC … UGGAAUUCUCGGGUGUCAAGG
Sequence,log2 enrichment
GUCCUGUGCUACACAUCGUAUGUACCGAAUCGGGGUUUUGGGGUUUUGGGGUUUUGGGAAAGUAUUAUGUUACGCCGUUCGGAUCUGCAC,-0.337
CAAGUCCUGUGCUACACAUCGUAUGUACCGAAUCGGUUUUGGUUUUGGUUUUGGGAAAGUAUUAUGUUACGCCGUUCGGAUCUGCACUUC,-1.42
ACCAUGCAGGUGGGCAUCUUUGGGAAGUGGGGCAAGGGGGGGAUAGGGAGGGGGGUAACACUUUGGGAACAGGUGGUCCCGGGUCGUUUC,1.2
UCCUGUGCUACACAUCGUAUGUACCGAAUCAAAUUUUUUUAAACCCCCCCAAAUUUAAAAAAGUAUUAUGUUACGCCGUUCGGAUCUGCA,1.17
UCCUCAAGUCCUGUGCUACACAUCGUAUGUACCGAAUCGGAGGGAGGGGAGGAAAGUAUUAUGUUACGCCGUUCGGAUCUGCACUUCCAG,-0.888
GCAGGAAGUAAAAACAAAUGGAAAUGCUUCGGAUAGUGGCAGGGGUGGGGGUUGUUAAGGAAAGGGUGGGAUGGGAGUGGGUAAAGAGUU,1.66
CUCAAGUCCUGUGCUACACAUCGUAUGUACCGAAUCGGAAAGGUUUUUGGUGGAAAGUAUUAUGUUACGCCGUUCGGAUCUGCACUUCCA,-0.195
UGGGAGGUGGAUUUUGUUUAUUUUUUUAGCUCAUUUCCAGGGGUGGGAAUUUUUUUUUAAUAUGUGUCAUGAAUAAAGUUGCUUUUGAAA,-0.311
CCUGUGCUACACAUCGUAUGUACCGAAUCGGGGAAAAAGGGGAAAGGGGAAAAAAAGGGGAAAGUAUUAUGUUACGCCGUUCGGAUCUGC,1.07
UCAAGUCCUGUGCUACACAUCGUAUGUACCGAAUCGGGAAGGGGAAGGGAAGGGGAAAGUAUUAUGUUACGCCGUUCGGAUCUGCACUUC,-0.535
UGGGAAGUGGAUUUUGUUUAUUUUUUUAGCUCAUUUCCAGGGGUGGGAAUUUUUUUUUAAUAUGUGUCAUGAAUAAAGUUGUUUUUGAAA,-0.211

# Other studies, line by line
Substance,target,assay,system,setting,how to read,quantity,value
"PhoQ, residues 284 288 289 292 302 303 ALSMDL","PhoP, residues 12 14 15 18 19 AQCLL (Escherichia coli, UniProt P23836)","Sort-seq, measured: YFP reporter",E. coli,"PhoQ-PhoP variant library, added: 10 µM Mg2+","baseline: high Mg2+ state, higher = stronger signaling",fold induction,0.924

# A few entries again (series 4):
Sequence,E-score
CGTCCTCA,0.00315
AAAGACGA,0.016
CACGCTCC,-0.0285
ACGGTCGC,0.0689
AATACTCC,-0.177
CGCCCGCA,0.294
TCATTGCA,0.148
ACGTTTAC,-0.202
TCCGTCGA,-0.0154
CCTGGACG,-0.15
